Values quoted from earlier work that unrelated publications cite.
Compare with care: the assays were run in different laboratories. ± gives the spread as reported.

CCOC(=O)c1c(C(=O)OC)cn(CC(c2cn(C)c3ccccc23)c2cn(C)c3ccccc23)c1C gave an IC50 of 3700 nM (Leishmania infantum).
CC(=O)O[C@H](COP(=O)(O)O)[C@@H](OC(C)=O)C(=O)NO has an IC50 of 229000 nM (Trypanosoma brucei rhodesiense; parasite growth, whole parasite).
O=C(/C=C/c1ccc(O)c(O)c1)N1CCN(Cc2ccccc2)CC1 gave an IC50 of 13000 ± 7100 nM (Trypanosoma cruzi; amastigotes).
C/C=C1\NC(=O)[C@H](Cc2ccccc2)NC(=O)[C@H](C(C)C)NC(=O)[C@H](Cc2ccncc2)NC(=O)[C@H](CCC(N)=O)NC(=O)[C@H](Cc2ccc3ccccc3c2)NC(=O)[C@H]2CSC[C@@H](C(=O)N[C@@H](CO)C(=O)O)NC(=O)[C@H](CSC[C@H]3NC(=O)[C@H]([C@@H](C)CC)NC(=O)[C@H](NC(=O)[C@H](Cc4c[nH]cn4)NC(=O)[C@@H](NC(=O)[C@@H](NC(=O)CNC(=O)[C@H](CO)NC(=O)CNC(=O)CNC(=O)[C@@H](N)CCCCN)C(C)C)[C@@H](C)CC)[C@H](C)SC[C@H](NC(=O)[C@H](CCC(=O)O)NC(=O)[C@H](Cc4c[nH]cn4)NC3=O)C(=O)N[C@@H](CCCNC(=N)N)C(=O)N[C@@H](CCSC)C(=O)N[C@@H](CC(N)=O)C(=O)N2)NC1=O has an IC50 of 2420 ± 60 nM (Lactococcus lactis subsp. cremoris; cell growth; HP).
C/C=C(/C)C(=O)OC(C)c1cc2c(cc1OC)OC(C)(C)C=C2 (stereo not shown) has an IC50 of 14.6 µg/mL (Leishmania donovani; axenic amastigotes).
With COc1cc(O)c(-c2ccc(OC)c3c(O)cc(C)c(-c4cc(-c5c(O)cc(OC)c6c5C[C@H](C)N(C)[C@@H]6C)c5cc(C)cc(OC)c5c4O)c23)c2c1[C@@H](C)N(C)[C@H](C)C2 the IC50 was 94200 nM (Leishmania donovani; MHOM/ET/67/L82; amastigotes).
With Clc1ccc(CNCC(c2c[nH]c3cc(Br)ccc23)c2c[nH]c3cc(Br)ccc23)cc1 the IC50 was 2700 nM (Leishmania infantum; promastigotes).
The IC50 of COC(=O)C1=CO[C@@H](C)[C@@H]2Cn3ccc4c5ccccc5nc-4c3C[C@H]12 is reported as greater than 30000 nM (Plasmodium falciparum; K1; 48 h).
With CC=C1NC(=O)[C@H](Cc2ccccc2)NC(=O)[C@H](C(C)C)NC(=O)[C@H](Cc2ccccc2)NC(=O)[C@H](CCC(N)=O)NC(=O)[C@H](Cc2c[nH]c3ccccc23)NC(=O)C2CSC[C@@H](C(=O)N[C@@H](CO)C(=O)O)NC(=O)[C@H](CSCC3NC(=O)[C@H]([C@@H](C)CC)NC(=O)C(NC(=O)[C@H](Cc4c[nH]cn4)NC(=O)[C@@H](NC(=O)[C@@H](NC(=O)CNC(=O)[C@H](CO)NC(=O)CNC(=O)CNC(=O)[C@@H](N)CCCCN)C(C)C)[C@@H](C)CC)C(C)SC[C@H](NC(=O)[C@H](CCC(=O)O)NC(=O)[C@H](Cc4c[nH]cn4)NC3=O)C(=O)N[C@@H](CC(N)=O)C(=O)N[C@@H](CCSC)C(=O)N[C@@H](CC(N)=O)C(=O)N2)NC1=O (stereo partly shown) the IC50 was 750 nM (Lactococcus lactis; HP).
With COC(=O)c1[nH]c(C(=O)OC)c2c1-c1c[nH]c3cc(Cl)cc(c13)[C@@]21C=Nc2ccc(Cl)cc21 the IC50 was 1300 nM (Leishmania amazonensis; promastigotes).
O=C(/C=C/c1ccccc1)OCc1ccc2c(c1)OCO2 has an IC50 of 42800 nM (Leishmania infantum; parasite growth).
With C/C=C1\NC(=O)[C@H](Cc2ccccc2)NC(=O)[C@H](C(C)C)NC(=O)[C@H](Cc2ccncc2)NC(=O)[C@H](CCC(N)=O)NC(=O)[C@H](Cc2c[nH]c3ccccc23)NC(=O)[C@H]2CSC[C@@H](C(=O)N[C@@H](CO)C(=O)O)NC(=O)[C@H](CSC[C@H]3NC(=O)[C@H]([C@@H](C)CC)NC(=O)[C@H](NC(=O)[C@H](Cc4c[nH]cn4)NC(=O)[C@@H](NC(=O)[C@@H](NC(=O)CNC(=O)[C@H](CO)NC(=O)CNC(=O)CNC(=O)[C@@H](N)CCCCN)C(C)C)[C@@H](C)CC)[C@H](C)SC[C@H](NC(=O)[C@H](CCC(=O)O)NC(=O)[C@H](Cc4c[nH]cn4)NC3=O)C(=O)N[C@@H](CCCNC(=N)N)C(=O)N[C@@H](CCSC)C(=O)N[C@@H](CC(N)=O)C(=O)N2)NC1=O the IC50 was 213 ± 9 nM (Lactococcus lactis subsp. cremoris; cell growth; HP).
For CNC(C)CCC(O)Cn1c2ccc(Cl)cc2c2cc(Cl)ccc21 (stereo not shown), the IC50 was 70 nM (Plasmodium; parasite growth).

For quick reference, copied from above:
For CNC(C)CCC(O)Cn1c2ccc(Cl)cc2c2cc(Cl)ccc21 (stereo not shown), the IC50 was 70 nM (Plasmodium; parasite growth).
